Measured values gathered from unrelated publications.
Compare with care: the assays were run in different laboratories. “And” joins repeats or separate records; there may be more than shown. Numbers after ± are the reported error.
Chain of UniProt Q9HCP0 (whole entry, looked up): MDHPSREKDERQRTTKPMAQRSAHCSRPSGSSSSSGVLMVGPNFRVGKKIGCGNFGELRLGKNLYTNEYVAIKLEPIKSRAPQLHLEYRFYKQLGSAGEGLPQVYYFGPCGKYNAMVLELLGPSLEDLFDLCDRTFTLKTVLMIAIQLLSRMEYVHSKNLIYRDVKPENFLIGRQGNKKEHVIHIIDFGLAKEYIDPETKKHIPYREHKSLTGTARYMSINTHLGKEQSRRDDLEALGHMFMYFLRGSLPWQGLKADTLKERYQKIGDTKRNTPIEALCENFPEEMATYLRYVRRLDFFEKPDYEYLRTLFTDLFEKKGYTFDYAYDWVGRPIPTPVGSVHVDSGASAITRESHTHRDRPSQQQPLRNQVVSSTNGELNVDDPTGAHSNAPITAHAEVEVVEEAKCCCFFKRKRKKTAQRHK
Chain of UniProt Q99895 (whole entry, looked up): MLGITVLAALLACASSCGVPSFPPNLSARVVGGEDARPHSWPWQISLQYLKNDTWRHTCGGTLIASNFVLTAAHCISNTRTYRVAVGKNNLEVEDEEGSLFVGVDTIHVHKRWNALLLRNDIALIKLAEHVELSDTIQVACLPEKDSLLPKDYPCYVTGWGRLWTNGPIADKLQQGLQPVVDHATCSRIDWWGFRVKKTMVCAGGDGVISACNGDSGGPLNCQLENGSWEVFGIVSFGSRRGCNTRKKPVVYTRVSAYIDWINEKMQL
Chain of UniProt Q9NQU5 (whole entry, looked up): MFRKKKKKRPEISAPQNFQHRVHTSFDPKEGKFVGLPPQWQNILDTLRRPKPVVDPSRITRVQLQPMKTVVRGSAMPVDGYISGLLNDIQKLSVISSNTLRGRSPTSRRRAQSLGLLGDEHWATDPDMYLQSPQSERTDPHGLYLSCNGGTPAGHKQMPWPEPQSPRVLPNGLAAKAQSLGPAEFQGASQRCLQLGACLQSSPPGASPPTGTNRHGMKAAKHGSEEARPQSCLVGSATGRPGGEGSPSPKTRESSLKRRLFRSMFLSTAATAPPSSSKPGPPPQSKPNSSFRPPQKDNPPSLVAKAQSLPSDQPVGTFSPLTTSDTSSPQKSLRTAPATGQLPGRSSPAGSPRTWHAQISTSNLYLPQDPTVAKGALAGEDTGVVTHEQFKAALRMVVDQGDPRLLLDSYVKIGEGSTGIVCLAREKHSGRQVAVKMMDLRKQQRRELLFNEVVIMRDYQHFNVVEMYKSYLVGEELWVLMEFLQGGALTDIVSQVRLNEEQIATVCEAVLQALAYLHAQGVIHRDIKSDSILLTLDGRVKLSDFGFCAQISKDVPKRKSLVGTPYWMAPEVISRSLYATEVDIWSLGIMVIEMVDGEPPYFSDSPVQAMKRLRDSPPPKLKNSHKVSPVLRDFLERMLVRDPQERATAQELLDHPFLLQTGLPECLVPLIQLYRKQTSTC

CS(C)(=O)=Nc1ccc(-c2ccc(-c3nc4cc(O[C@@H]5CO[C@H]6[C@@H]5OC[C@H]6O)[nH]c4cc3F)cc2)cc1 has an inhibition of 12% (Casein kinase I isoform gamma-1 (CSNK1G1, Homo sapiens, UniProt Q9HCP0); enzyme activity, inhibitor; 10 µM).
The SUVmean of CCCC[C@H](NC(=O)CN1CCC(NC(=S)Nc2ccc(C[C@H]3CN(CC(N)=O)CCN(CC(N)=O)CCN(CC(N)=O)CCN3CC(N)=O)cc2)CC1)C(=O)N[C@H]1CC(=O)NCCCC[C@@H](C(N)=O)NC(=O)[C@H](Cc2c[nH]c3ccccc23)NC(=O)[C@H](CCCNC(=N)N)NC(=O)[C@@H](Cc2ccccc2)NC(=O)[C@H](Cc2c[nH]cn2)NC1=O [lead-203 labelled] is reported as 0.6 SUV (SPECT/CT; male C57BL/6J mice, B16-F10 tumour, tumour; intravenous, 20 pmol, 2 h, 203Pb-labelled).
CC[C@H](C)[C@@H]([C@@H](CC(=O)N1CCC[C@H]1[C@H](OC)[C@@H](C)C(=O)N[C@H](C)[C@@H](O)c1ccccc1)OC)N(C)C(=O)[C@@H](NC(=O)[C@H](C(C)C)N(C)C(=O)OCc1ccc(NC(=O)[C@H](CCCNC(N)=O)NC(=O)[C@@H](NC(=O)CCCCCN2C(=O)CC(SC[C@H](NC(=O)[C@H](CC(=O)O)NC(=O)[C@H](Cc3ccc(O)cc3)NC(=O)[C@H](Cc3c[nH]c4ccccc34)NC(=O)[C@@H](N)CCCNC(=N)N)C(=O)O)C2=O)C(C)C)cc1)C(C)C (stereo partly drawn) has a concentration of 42 ± 16.7 nM (C57BL/6 mice (healthy), serum; intraperitoneal, 2.5 mg/kg, 0.167 h).
COc1ccccc1-c1n[nH]c2nc(NC3CCN(C(=O)Cc4ccc(F)cc4F)CC3)ncc12 has a relative abundance of 1.09 (bead binding, competition bead pull-down, measured: LINJ.23.0310; Leishmania donovani extract; 10 µM; reference: vehicle).
O=C1NC2(CC2)COc2ncc(F)cc2[C@H]2COCCN2c2ccn3ncc1c3n2 has a serum triglycerides of 0.34 ± 0.12 mmol/L (Sprague-Dawley rat, female, serum; oral, 2.5 mg/kg/day, end of recovery, 4-week subacute toxicity).
With O=C1NC(=O)c2c1c1cc(F)c[n+]3c1c1c2c2cc(O)ccc2[n]1[Ru-4]312([N]=C=S)[S+]3CC[S+]1CC[S+]2CC3 (stereo not drawn) the remaining activity was 62% (Serine/threonine-protein kinase PAK 6 (PAK6, Homo sapiens, UniProt Q9NQU5); enzyme activity; 100 nM, human enzyme, together with: 10 µM ATP; reference: untreated).
For CC(C)C[C@@H]1NC(=O)CNC(=O)[C@@H]2CSSC[C@@H]3NC(=O)[C@H]([C@@H](C)O)NC(=O)[C@H](CC(N)=O)NC(=O)[C@H](CSSC[C@@H](C(=O)N[C@@H](Cc4ccc(O)cc4)C(=O)N[C@@H](CCC(N)=O)C(=O)O)NC(=O)[C@H](CC(C)C)NC(=O)[C@H](C)NC1=O)NC(=O)[C@H](CCCCN)NC(=O)[C@H](CC(=O)O)NC(=O)[C@H](CCCCN)NC(=O)[C@H](Cc1ccccc1)NC(=O)[C@H]([C@@H](C)O)NC(=O)[C@H]([C@@H](C)O)NC(=O)CNC(=O)[C@@H]1CCCN1C(=O)[C@H](CCC(=O)O)NC(=O)[C@@H](NC(=O)[C@@H](NC(=O)[C@@H](NC(=O)[C@H](CCC(=O)O)NC(=O)[C@H](CO)NC(=O)CN)C(C)C)[C@@H](C)O)CSSC[C@H](NC(=O)[C@H](CCCNC(=N)N)NC3=O)C(=O)NCC(=O)N[C@@H](CO)C(=O)N[C@@H](CC(=O)O)C(=O)NCC(=O)N[C@@H](CCCCN)C(=O)N[C@@H](CO)C(=O)N[C@@H](C)C(=O)N[C@@H](Cc1ccc(O)cc1)C(=O)N2, “time to full digestion” read ≤ 2 days (Chymotrypsin-C (Homo sapiens, UniProt Q99895); substrate, LC-MS; 15 µM, pH 8.0, 25 °C).
With CN[C@H](CC(C)C)C(=O)N[C@H]1C(=O)N[C@@H](CC(N)=O)C(=O)N[C@H]2C(=O)N[C@H]3C(=O)N[C@H](C(=O)N[C@H](C(=O)O)c4cc(O)cc(O)c4-c4cc3ccc4O)[C@H](O)c3ccc(c(Cl)c3)Oc3cc2cc(c3O[C@@H]2O[C@H](CO)[C@@H](O)[C@H](O)[C@H]2O[C@H]2C[C@](C)(NCc3ccc(OCc4cn(CC(=O)N[C@H](C(=O)N[C@@H](CCN)C(=O)N[C@H]5CCNC(=O)[C@H]([C@@H](C)O)NC(=O)[C@H](CCN)NC(=O)[C@H](CCN)NC(=O)[C@H](CC(C)C)NC(=O)[C@@H](CC(C)C)NC(=O)[C@H](CCN)NC5=O)[C@@H](C)O)nn4)c(OC)c3)[C@H](O)[C@H](C)O2)Oc2ccc(cc2Cl)[C@H]1O the TC50 was 230 µM (ciPTEC overexpressing OAT-1; 24 h, 37 °C, serum-free medium).
CSCC[C@@H]1NC(=O)[C@@H]2CCCN2C(=O)[C@H](C(C)C)NC(=O)[C@@H](NC(=S)Nc2ccc(CC3CN(CC(=O)O)CCN(CC(=O)O)CCN3CC(=O)O)cc2)CSSC[C@@H](C(=O)O)NC(=O)[C@H](C)NC(=O)[C@H](CCCNC(=N)N)NC(=O)[C@H](Cc2ccc(O)cc2)NC(=O)[C@H]([C@@H](C)O)NC1=O (stereo partly drawn) [gallium-68 labelled] — result for “tumour to muscle ratio”: 8.22 ± 1.6 (PET; mouse B16-F10 tumour; intravenous, 1 h).
The unbound fraction of CC(=O)N[C@@H](CC(C)C)C(=O)N[C@H](C(=O)N[C@@H](Cc1ccccc1)C(=O)N[C@]1(C)CCCCCC/C=C/CCC[C@@](C)(C(=O)N[C@@H](C)C(=O)N[C@@H](C)C(=O)N[C@@H](C)C(=O)N[C@@H](C)C(=O)N[C@@H](C)C(=O)N[C@H](C)C(N)=O)NC(=O)[C@H](CC(C)C)NC(=O)[C@H](CCCCNC(=O)CCNC(=O)C[C@@H]2N=C(c3ccc(Cl)cc3)c3c(sc(C)c3C)-n3c(C)nnc32)NC(=O)[C@H](C)NC(=O)[C@H](Cc2c[nH]c3ccccc23)NC(=O)[C@H](Cc2ccc(O)cc2)NC(=O)[C@H](C)NC1=O)[C@@H](C)O is reported as 2.71% and 2.7% (equilibrium dialysis; mouse plasma; 2 µM, 6 h, 37 °C).
The tissue uptake of N=C(N)NCCC[C@@H]1NC(=O)[C@H](CCCCNC(=O)CCC(NC(=S)Nc2ccc(CC3CN(CC(=O)O)CCN(CC(=O)O)CCN(CC(=O)O)CCN3CC(=O)O)cc2)C(=O)NCCCC[C@@H]2NC(=O)[C@@H](Cc3ccc(O)cc3)NC(=O)[C@H](CC(=O)O)NC(=O)CNC(=O)[C@H](CCCNC(=N)N)NC2=O)NC(=O)[C@@H](Cc2ccc(O)cc2)NC(=O)[C@H](CC(=O)O)NC(=O)CNC1=O (stereo partly drawn) [scandium-44 labelled] is reported as 0.71 ± 0.3 %ID/g (ex vivo γ-counting; female athymic nude mice, U-87 MG xenograft, stomach; intravenous, 4 h).
For CC[C@H](C)[C@H](NC(=O)[C@H](CO)NC(=O)[C@H](Cc1ccc(O)cc1)NC(=O)[C@H](Cc1ccc(O)cc1)NC(=O)[C@H](CC(N)=O)NC(=O)CNC(=O)[C@H](CO)NC(=O)[C@H](Cc1ccc(O)cc1)NC(=O)[C@H](CO)NC(=O)[C@H](CO)NC(=O)[C@H](CC(N)=O)NC(=O)COCCOCCNC(=O)CN1CCN(CC(=O)O)CCN(CC(=O)O)CCN(CC(=O)O)CC1)C(=O)N[C@@H](CC(C)C)C(N)=O [copper-64 labelled], the tissue uptake was 13 %ID/mL (dynamic PET; KPC mouse Ptf1a-CreER tdTomato, pancreas; intravenous, 4.6 MBq/mouse, 5.5 min, 84 d after tamoxifen).

Excerpt of the above:
CS(C)(=O)=Nc1ccc(-c2ccc(-c3nc4cc(O[C@@H]5CO[C@H]6[C@@H]5OC[C@H]6O)[nH]c4cc3F)cc2)cc1 has an inhibition of 12% (Casein kinase I isoform gamma-1 (CSNK1G1, Homo sapiens, UniProt Q9HCP0); enzyme activity, inhibitor; 10 µM).
The SUVmean of CCCC[C@H](NC(=O)CN1CCC(NC(=S)Nc2ccc(C[C@H]3CN(CC(N)=O)CCN(CC(N)=O)CCN(CC(N)=O)CCN3CC(N)=O)cc2)CC1)C(=O)N[C@H]1CC(=O)NCCCC[C@@H](C(N)=O)NC(=O)[C@H](Cc2c[nH]c3ccccc23)NC(=O)[C@H](CCCNC(=N)N)NC(=O)[C@@H](Cc2ccccc2)NC(=O)[C@H](Cc2c[nH]cn2)NC1=O [lead-203 labelled] is reported as 0.6 SUV (SPECT/CT; male C57BL/6J mice, B16-F10 tumour, tumour; intravenous, 20 pmol, 2 h, 203Pb-labelled).
